# Published values collected from several papers.
# Compare with care: the assays were run in different laboratories.
# GLP1R: Glucagon-like peptide 1 receptor (GLP1R, Homo sapiens, UniProt P43220)
# DCN1-like protein 1: DCN1-like protein 1 (Homo sapiens, UniProt Q96GG9)
# Sequence of UniProt Q96GG9 (whole entry, looked up): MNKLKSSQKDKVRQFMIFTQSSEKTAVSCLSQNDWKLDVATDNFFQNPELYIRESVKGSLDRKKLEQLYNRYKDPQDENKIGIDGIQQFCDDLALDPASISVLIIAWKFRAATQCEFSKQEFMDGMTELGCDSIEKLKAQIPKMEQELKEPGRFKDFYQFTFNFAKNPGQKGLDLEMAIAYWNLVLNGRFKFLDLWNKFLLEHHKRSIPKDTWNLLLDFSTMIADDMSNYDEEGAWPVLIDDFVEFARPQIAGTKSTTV
# Sequence of UniProt P49662 (whole entry, looked up): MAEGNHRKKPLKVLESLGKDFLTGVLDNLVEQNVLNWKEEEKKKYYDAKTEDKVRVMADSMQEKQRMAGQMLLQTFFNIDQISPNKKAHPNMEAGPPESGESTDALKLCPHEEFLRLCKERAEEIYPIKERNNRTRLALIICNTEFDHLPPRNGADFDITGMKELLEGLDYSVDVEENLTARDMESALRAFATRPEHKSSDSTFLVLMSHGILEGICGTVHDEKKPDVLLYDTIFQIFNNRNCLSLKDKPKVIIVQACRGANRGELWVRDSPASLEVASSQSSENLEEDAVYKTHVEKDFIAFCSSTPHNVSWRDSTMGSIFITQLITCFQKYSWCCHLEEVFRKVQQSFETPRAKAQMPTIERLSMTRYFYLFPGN
# Sequence of UniProt P21917 (whole entry, looked up): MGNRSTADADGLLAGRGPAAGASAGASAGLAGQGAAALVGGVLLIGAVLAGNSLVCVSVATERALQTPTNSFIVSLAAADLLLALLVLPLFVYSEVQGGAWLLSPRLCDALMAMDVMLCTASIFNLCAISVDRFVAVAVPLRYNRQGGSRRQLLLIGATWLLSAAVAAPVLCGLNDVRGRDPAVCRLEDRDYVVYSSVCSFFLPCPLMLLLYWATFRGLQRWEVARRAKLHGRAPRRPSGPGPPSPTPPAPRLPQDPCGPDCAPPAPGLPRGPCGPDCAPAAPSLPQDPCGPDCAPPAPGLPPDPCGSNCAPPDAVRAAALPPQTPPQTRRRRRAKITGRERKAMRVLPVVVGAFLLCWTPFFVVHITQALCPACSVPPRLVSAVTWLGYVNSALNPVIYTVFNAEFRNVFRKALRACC
# Sequence of UniProt Q16531 (whole entry, looked up): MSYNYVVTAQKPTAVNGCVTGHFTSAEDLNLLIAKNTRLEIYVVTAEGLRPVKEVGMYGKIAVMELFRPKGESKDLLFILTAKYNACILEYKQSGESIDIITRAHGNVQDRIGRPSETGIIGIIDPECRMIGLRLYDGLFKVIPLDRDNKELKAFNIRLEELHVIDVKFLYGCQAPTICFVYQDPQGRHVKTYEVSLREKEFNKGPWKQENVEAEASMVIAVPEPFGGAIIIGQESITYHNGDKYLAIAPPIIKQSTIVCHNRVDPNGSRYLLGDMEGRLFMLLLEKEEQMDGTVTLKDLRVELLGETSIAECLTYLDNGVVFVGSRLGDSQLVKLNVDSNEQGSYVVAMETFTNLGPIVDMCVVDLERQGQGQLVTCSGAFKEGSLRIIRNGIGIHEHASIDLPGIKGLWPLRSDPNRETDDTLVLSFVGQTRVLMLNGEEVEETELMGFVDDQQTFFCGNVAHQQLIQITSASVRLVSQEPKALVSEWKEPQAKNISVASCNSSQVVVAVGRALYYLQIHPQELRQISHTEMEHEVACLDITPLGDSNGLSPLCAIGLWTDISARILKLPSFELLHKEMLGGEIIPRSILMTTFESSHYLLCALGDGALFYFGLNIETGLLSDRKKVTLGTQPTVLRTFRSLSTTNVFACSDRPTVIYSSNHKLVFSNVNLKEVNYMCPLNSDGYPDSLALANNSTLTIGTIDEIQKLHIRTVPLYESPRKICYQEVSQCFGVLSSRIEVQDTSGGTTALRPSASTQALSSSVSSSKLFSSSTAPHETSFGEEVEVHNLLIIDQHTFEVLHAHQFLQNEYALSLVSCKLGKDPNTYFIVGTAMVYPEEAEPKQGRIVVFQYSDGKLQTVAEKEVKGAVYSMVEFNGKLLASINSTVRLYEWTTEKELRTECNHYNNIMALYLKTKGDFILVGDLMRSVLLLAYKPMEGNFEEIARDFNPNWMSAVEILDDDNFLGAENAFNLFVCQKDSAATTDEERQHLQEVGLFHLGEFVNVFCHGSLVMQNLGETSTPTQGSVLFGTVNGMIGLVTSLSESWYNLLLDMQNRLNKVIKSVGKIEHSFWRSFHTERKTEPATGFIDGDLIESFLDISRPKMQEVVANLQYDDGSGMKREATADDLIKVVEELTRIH
# Sequence of UniProt Q9UHM6 (whole entry, looked up): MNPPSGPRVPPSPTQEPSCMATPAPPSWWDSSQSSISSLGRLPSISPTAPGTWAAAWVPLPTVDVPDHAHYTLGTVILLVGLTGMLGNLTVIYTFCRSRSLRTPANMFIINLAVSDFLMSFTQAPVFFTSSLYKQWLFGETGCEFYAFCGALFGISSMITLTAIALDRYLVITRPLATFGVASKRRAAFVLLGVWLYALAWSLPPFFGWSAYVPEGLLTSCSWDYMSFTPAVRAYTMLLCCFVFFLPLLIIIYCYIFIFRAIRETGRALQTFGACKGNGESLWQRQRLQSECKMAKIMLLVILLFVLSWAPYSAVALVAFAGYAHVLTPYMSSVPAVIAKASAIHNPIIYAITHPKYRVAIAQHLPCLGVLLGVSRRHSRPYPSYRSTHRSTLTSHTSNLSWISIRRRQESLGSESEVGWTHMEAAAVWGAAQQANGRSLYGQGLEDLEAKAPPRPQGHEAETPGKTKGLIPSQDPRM
Compound,target,test,test system,conditions,quantity,value
Nc1nc2c(ncn2[C@@H]2O[C@@H]3COP(=O)(O)O[C@H]4[C@@H](O)[C@H](n5cnc6c(=O)[nH]c(N)nc65)O[C@@H]4COP(=O)(O)O[C@H]3[C@H]2O)c(=O)[nH]1,"Cell cycle histidine kinase CckA, CA domain (Caulobacter vibrioides, UniProt Q9X688)",isothermal titration calorimetry,Caulobacter crescentus,"12 °C, added: AMPPNP 5 mM",Kd,25000 nM
COc1ccc(S(=O)(=O)N2CCCCC2)cc1C,"Melanopsin (OPN4, Homo sapiens, UniProt Q9UHM6)","calcium release, antagonist",CHO cells expressing OPN4,,Kb,110 nM
CC[C@H](C)[C@H](NC(=O)[C@H](Cc1ccccc1)NC(=O)[C@H](CCC(=O)O)NC(=O)[C@H](CCCNC(=N)N)NC(=O)[C@H](C)NC(=O)[C@H](C)NC(=O)[C@H](CCC(N)=O)NC(=O)[C@H](CCC(=O)O)NC(=O)[C@H](CCC(=O)O)NC(=O)[C@H](CC(C)C)NC(=O)[C@H](Cc1ccc(O)cc1)NC(=O)[C@H](CO)NC(=O)[C@H](CO)NC(=O)[C@@H](NC(=O)[C@H](CC(=O)O)NC(=O)[C@H](CO)NC(=O)[C@@H](NC(=O)[C@H](Cc1ccccc1)NC(=O)[C@@H](NC(=O)CNC(=O)[C@H](CCC(=O)O)NC(=O)[C@H](C)NC(=O)CCc1cnc[nH]1)[C@@H](C)O)[C@@H](C)O)C(C)C)C(=O)N[C@@H](C)C(=O)N[C@@H](Cc1c[nH]c2ccccc12)C(=O)N[C@@H](CC(C)C)C(=O)N[C@H](C(=O)N[C@@H](CCCCNc1c(NCCCCCN(O)C(=O)CCC(=O)NCCCCCN(O)C(=O)CCC(=O)NCCCCCN(O)C(C)=O)c(=O)c1=O)C(=O)NCC(=O)N[C@@H](CCCNC(=N)N)C(=O)N[C@@H](CCCCNC(=O)COCCOCCNC(=O)COCCOCCNC(=O)CC[C@H](NC(=O)CCCCCCCCCCCCCCCCC(=O)O)C(=O)O)C(=O)NCC(=O)NCC(=O)N[C@@H](CO)C(=O)N[C@@H](CCCCNc1c(NCCCCCN(O)C(=O)CCC(=O)NCCCCCN(O)C(=O)CCC(=O)NCCCCCN(O)C(C)=O)c(=O)c1=O)C(=O)O)C(C)C,GLP1R,"cAMP reporter gene, agonist, CRE luciferase",BHK,"without Zr, 0% HSA",EC50,0.027 nM
Cc1cccc(C)c1N1C(=O)[C@H](CO)NC2(CCN(C)CC2)C1=O,"DRD4 (Homo sapiens, UniProt P21917)",binding,,,Ki,> 10000 nM
CC[C@H](C)[C@H](NC(=O)[C@H](Cc1ccccc1)NC(=O)[C@H](CCC(=O)O)NC(=O)[C@H](CCCNC(=N)N)NC(=O)[C@H](C)NC(=O)[C@H](C)NC(=O)[C@H](CCC(N)=O)NC(=O)[C@H](CCC(=O)O)NC(=O)[C@H](CCC(=O)O)NC(=O)[C@H](CC(C)C)NC(=O)[C@H](Cc1ccc(O)cc1)NC(=O)[C@H](CO)NC(=O)[C@H](CO)NC(=O)[C@@H](NC(=O)[C@H](CC(=O)O)NC(=O)[C@H](CO)NC(=O)[C@@H](NC(=O)[C@H](Cc1ccccc1)NC(=O)[C@@H](NC(=O)CNC(=O)[C@H](CCC(=O)O)NC(=O)[C@H](C)NC(=O)CCc1cnc[nH]1)[C@@H](C)O)[C@@H](C)O)C(C)C)C(=O)N[C@@H](C)C(=O)N[C@@H](Cc1c[nH]c2ccccc12)C(=O)N[C@@H](CC(C)C)C(=O)N[C@H](C(=O)N[C@@H](CCCNC(=N)N)C(=O)NCC(=O)N[C@@H](CCCNC(=N)N)C(=O)N[C@@H](CCCCNC(=O)COCCOCCNC(=O)COCCOCCNC(=O)CC[C@H](NC(=O)CCCCCCCCCCCCCCCCC(=O)O)C(=O)O)C(=O)NCC(=O)NCC(=O)N[C@@H](CO)C(=O)N[C@@H](CCCCNC(=O)[C@H](CCCCNc1c(NCCCCCN(O)C(=O)CCC(=O)NCCCCCN(O)C(=O)CCC(=O)NCCCCCN(O)C(C)=O)c(=O)c1=O)Nc1c(NCCCCCN(O)C(=O)CCC(=O)NCCCCCN(O)C(=O)CCC(=O)NCCCCCN(O)C(C)=O)c(=O)c1=O)C(=O)O)C(C)C,GLP1R,"cAMP reporter gene, agonist, CRE luciferase",BHK,"with Zr, 1% HSA",EC50,0.1 nM
Cc1nn(-c2ccccc2)c2c1[C@H](c1ccsc1C)[C@H](NC(=O)c1cccc(C(F)(F)F)c1)C(=O)N2,DCN1-like protein 1,,,,IC50,> 15000 nM
COc1cc(Nc2ncc(F)c(Nc3ccc4c(n3)NC(=O)C(C)(C)O4)n2)cc(OC)c1OC,"Caspase-4 (CASP4, Homo sapiens, UniProt P49662)",,,,IC50,> 10000 nM
C[C@H]1CN(c2n[nH]c3nc(N[C@H]4CC[C@H](NS(=O)(=O)CCC(F)(F)F)CC4)ncc23)CCO1,"DDB1 (Homo sapiens, UniProt Q16531)",biochemical,,,IC50,≥ 20000 nM
CC[C@H](C)[C@H](NC(=O)[C@H](Cc1ccccc1)NC(=O)[C@H](CCC(=O)O)NC(=O)[C@H](CCCNC(=N)N)NC(=O)[C@H](C)NC(=O)[C@H](C)NC(=O)[C@H](CCC(N)=O)NC(=O)[C@H](CCC(=O)O)NC(=O)[C@H](CCC(=O)O)NC(=O)[C@H](CC(C)C)NC(=O)[C@H](Cc1ccc(O)cc1)NC(=O)[C@H](CO)NC(=O)[C@H](CO)NC(=O)[C@@H](NC(=O)[C@H](CC(=O)O)NC(=O)[C@H](CO)NC(=O)[C@@H](NC(=O)[C@H](Cc1ccccc1)NC(=O)[C@@H](NC(=O)CNC(=O)[C@H](CCC(=O)O)NC(=O)[C@H](C)NC(=O)CCc1cnc[nH]1)[C@@H](C)O)[C@@H](C)O)C(C)C)C(=O)N[C@@H](C)C(=O)N[C@@H](Cc1c[nH]c2ccccc12)C(=O)N[C@@H](CC(C)C)C(=O)N[C@H](C(=O)N[C@@H](CCCCNC(=O)COCCOCCNC(=O)COCCOCCNC(=O)CC[C@H](NC(=O)CCCCCCCCCCCCCCCCC(=O)O)C(=O)O)C(=O)NCC(=O)N[C@@H](CCCNC(=N)N)C(=O)N[C@@H](CCCCNc1c(NCCCCCN(O)C(=O)CCC(=O)NCCCCCN(O)C(=O)CCC(=O)NCCCCCN(O)C(C)=O)c(=O)c1=O)C(=O)NCC(=O)NCC(=O)N[C@@H](CO)C(=O)N[C@@H](CCCCNc1c(NCCCCCN(O)C(=O)CCC(=O)NCCCCCN(O)C(=O)CCC(=O)NCCCCCN(O)C(C)=O)c(=O)c1=O)C(=O)O)C(C)C,GLP1R,"cAMP reporter gene, agonist, CRE luciferase",BHK,"with Zr, 1% HSA",EC50,0.15 nM
CCN1C(=O)[C@@H](NC(=O)C(C)(C)C)[C@@H](c2ccc(F)cc2)c2c(C)nn(-c3ccccc3)c21,DCN1-like protein 1,,,,IC50,> 15000 nM
